Experimental data collected from several papers.
Protocols differ between the studies behind these lines. “And” joins repeats or separate records; there may be more than shown. ± marks the error that the study gave. ≈ marks a conversion by molar mass, not a printed value.
UniProt P11509, sequence (whole entry, looked up): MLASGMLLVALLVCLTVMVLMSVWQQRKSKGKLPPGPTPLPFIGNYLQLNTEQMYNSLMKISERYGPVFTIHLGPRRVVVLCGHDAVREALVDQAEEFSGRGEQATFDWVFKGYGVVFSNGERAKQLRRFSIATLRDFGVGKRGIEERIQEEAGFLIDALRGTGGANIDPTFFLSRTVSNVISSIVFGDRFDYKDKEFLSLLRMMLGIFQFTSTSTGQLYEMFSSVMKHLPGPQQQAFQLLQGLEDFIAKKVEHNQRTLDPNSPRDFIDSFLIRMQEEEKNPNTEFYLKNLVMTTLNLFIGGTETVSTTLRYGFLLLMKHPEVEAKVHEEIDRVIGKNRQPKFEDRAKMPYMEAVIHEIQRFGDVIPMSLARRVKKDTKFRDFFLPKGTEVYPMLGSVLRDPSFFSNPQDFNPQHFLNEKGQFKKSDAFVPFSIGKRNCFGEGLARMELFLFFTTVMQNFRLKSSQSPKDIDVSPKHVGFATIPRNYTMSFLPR
UniProt P25911, sequence (whole entry, looked up): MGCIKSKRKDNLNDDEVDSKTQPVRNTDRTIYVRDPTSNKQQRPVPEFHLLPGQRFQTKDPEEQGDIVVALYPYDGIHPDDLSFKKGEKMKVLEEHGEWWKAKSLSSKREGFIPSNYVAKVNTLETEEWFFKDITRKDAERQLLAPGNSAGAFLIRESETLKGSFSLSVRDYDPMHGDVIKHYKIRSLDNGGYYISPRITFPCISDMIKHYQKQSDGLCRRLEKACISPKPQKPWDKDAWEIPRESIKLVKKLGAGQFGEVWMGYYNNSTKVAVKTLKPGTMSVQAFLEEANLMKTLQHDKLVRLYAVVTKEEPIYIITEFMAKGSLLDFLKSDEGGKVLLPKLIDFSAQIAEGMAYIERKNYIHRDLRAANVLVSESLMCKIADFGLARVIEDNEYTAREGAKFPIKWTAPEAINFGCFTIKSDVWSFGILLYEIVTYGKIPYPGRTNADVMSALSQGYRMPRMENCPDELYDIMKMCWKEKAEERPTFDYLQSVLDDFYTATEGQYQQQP
UniProt P16234, sequence (whole entry, unmodified, looked up): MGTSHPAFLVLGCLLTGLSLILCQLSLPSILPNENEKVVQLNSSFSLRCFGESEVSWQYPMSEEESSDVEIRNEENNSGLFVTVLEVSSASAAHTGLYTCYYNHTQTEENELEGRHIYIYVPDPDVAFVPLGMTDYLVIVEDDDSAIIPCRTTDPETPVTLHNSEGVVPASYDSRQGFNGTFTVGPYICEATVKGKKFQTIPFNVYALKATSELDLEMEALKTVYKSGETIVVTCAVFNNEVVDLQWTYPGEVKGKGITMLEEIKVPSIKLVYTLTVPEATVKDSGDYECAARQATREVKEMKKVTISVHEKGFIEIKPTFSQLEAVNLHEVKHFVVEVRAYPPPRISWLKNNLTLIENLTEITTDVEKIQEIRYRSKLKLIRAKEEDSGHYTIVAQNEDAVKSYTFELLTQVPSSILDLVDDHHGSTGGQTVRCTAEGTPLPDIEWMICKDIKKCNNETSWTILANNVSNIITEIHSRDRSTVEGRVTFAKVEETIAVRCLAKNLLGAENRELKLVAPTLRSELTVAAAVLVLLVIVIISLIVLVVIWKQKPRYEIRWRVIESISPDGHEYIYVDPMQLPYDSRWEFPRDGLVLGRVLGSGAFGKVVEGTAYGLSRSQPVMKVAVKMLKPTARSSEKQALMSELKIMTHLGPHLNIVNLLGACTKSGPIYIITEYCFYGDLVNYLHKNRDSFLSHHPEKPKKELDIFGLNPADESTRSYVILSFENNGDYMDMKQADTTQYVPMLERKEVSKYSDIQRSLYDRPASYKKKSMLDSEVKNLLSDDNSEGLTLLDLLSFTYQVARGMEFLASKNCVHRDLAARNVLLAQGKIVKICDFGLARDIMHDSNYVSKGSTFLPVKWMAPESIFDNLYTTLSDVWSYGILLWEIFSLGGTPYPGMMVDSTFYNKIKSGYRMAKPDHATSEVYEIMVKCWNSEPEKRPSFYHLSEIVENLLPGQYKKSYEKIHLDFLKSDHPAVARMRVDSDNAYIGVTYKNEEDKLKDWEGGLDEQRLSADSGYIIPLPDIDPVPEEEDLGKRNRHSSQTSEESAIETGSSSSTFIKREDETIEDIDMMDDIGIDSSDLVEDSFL
UniProt P05771, sequence (whole entry, looked up): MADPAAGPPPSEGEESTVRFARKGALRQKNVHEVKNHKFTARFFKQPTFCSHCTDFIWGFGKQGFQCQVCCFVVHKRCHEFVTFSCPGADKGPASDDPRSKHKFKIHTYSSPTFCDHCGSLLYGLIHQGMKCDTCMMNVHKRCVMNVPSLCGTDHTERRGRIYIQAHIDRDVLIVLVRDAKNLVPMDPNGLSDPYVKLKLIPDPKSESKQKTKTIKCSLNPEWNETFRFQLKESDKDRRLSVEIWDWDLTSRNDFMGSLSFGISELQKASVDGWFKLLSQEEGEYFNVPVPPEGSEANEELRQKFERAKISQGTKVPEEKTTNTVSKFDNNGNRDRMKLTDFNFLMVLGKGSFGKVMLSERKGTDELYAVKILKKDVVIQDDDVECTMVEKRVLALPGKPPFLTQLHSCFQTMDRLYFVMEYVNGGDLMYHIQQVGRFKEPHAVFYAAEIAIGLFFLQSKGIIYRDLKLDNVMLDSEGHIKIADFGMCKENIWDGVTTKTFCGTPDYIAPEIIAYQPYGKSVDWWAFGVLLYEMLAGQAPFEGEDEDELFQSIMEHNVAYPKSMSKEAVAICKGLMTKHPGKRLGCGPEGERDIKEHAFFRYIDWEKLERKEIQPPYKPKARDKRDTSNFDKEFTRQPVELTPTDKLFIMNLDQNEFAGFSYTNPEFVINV
UniProt P10398, sequence (whole entry, looked up): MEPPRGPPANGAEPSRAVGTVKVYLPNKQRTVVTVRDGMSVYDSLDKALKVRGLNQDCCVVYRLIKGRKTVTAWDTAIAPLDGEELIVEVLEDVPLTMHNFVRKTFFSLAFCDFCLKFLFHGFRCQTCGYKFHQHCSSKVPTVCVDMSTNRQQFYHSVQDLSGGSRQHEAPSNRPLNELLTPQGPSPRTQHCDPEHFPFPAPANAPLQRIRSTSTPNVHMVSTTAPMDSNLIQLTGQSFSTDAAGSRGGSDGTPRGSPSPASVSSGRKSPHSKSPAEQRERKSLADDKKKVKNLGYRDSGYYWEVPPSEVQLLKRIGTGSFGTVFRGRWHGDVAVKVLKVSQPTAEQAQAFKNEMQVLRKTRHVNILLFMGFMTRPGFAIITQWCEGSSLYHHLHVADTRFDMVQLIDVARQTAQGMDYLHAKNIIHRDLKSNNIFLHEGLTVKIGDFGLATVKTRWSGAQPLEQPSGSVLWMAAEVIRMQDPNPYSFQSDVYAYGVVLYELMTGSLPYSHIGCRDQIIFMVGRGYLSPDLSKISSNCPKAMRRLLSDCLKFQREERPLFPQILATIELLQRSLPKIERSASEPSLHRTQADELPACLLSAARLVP

With CC(C)(C)C(=O)OCOP(=O)(OCOC(=O)C(C)(C)C)C1CCCN(O)C1=O (stereo not drawn) the GI50 was 537 nM (TK-10).
N[C@H](C(=O)N1CCCC1)C1CCN(c2nccc3c(-c4ncc(Cl)cc4Cl)cccc23)CC1 has an inhibition of 14% (GABA-A receptor chloride channel; binding, radioligand binding; 10 µM).
NC[C@]1(CC(=O)O)CC[C@@H]([18F])CC1 gave a fast-phase half-life of 4.54 min (PET, arterial plasma; rhesus monkey, plasma parent; intravenous, baseline).
For CS(C)(=O)=Nc1ccc(-c2ccc(-c3nc4cc(O[C@@H]5CO[C@H]6[C@@H]5OC[C@H]6O)[nH]c4cc3F)cc2)cc1, the inhibition was -3% (Protein kinase C beta type, isoform beta-I (PRKCB, Homo sapiens, UniProt P05771); kinase activity; 10 µM).
For C[C@@H](c1ccc2nccn2c1)n1nnc2ncc(-c3cn[nH]c3)nc21, the inhibition was less than 20% (human CYP3A4/5; time-dependent inhibitor; human liver microsomes; 10 µM).
For CC[C@H](C)[C@H](NC(=O)[C@H](CCCCN)NC(=O)[C@H](CCCCN)NC(=O)[C@H](Cc1ccccc1)NC(=O)[C@H](Cc1ccccc1)NC(=O)[C@H](CCCCN)NC(=O)[C@H](CCCCN)NC(=O)[C@H](Cc1ccccc1)NC(=O)[C@H](CCCNC(=N)N)NC(=O)[C@@H](N)CCCCN)C(=O)N[C@@H](CCCCN)C(=O)N[C@@H](CCCCN)C(=O)N[C@@H](CO)C(=O)N[C@H](C(=O)N[C@@H](CCCCN)C(=O)N[C@@H](CCCCN)C(=O)N[C@@H](CCCNC(=N)N)C(=O)N[C@H](C(=O)N[C@@H](CCCCN)C(=O)N[C@@H](CCCCN)C(=O)N[C@@H](CC(C)C)C(=O)N[C@@H](Cc1ccccc1)C(=O)N[C@@H](CCCCN)C(=O)N[C@@H](CCCCN)C(=O)N1CCC[C@H]1C(=O)N[C@@H](CCCNC(=N)N)C(=O)N[C@H](C(=O)N[C@H](C(=O)N1CCC[C@H]1C(=O)N[C@H](C(=O)N[C@@H](CO)C(=O)N[C@H](C(=O)N1CCC[C@H]1C(=O)N[C@@H](Cc1ccccc1)C(=O)O)[C@@H](C)CC)[C@@H](C)CC)[C@@H](C)CC)C(C)C)C(C)C)C(C)C, the MIC was 8 µg/mL (≈ 1.9 µM) (Escherichia coli; MIC after serum incubation; E24; 0.5 h, 37 °C, added: 25% mouse serum).
Cc1ccc(NS(=O)(=O)c2c(C(=O)N3CCCCCC3)c(C)n(C)c2C)c(Cl)c1 gave a viability of 97.9% (human cells; 11.11 µM, 60 h).
COc1cc2c(cc1NC(=O)c1cncn1C)C[C@H]1[C@H]3CCCC[C@@]23CCN1C has a plasma concentration of 8550 ng/mL (C57BL/6 mouse, plasma; oral, 50 µg/g, 60 min).
COc1ccccc1-c1n[nH]c2nc(NC3CCN(C(=O)Cc4ccc(F)cc4F)CC3)ncc12 gave a relative abundance of 1.03 (bead binding, competition bead pull-down, item: LINJ.26.2250; Leishmania donovani axenic amastigote extract; 10 µM; reference: vehicle).
CC[C@H](C)[C@H](NC(=O)[C@H](CO)NC(=O)[C@H](Cc1ccc(O)cc1)NC(=O)[C@H](Cc1ccc(O)cc1)NC(=O)[C@H](CC(N)=O)NC(=O)CNC(=O)[C@H](CO)NC(=O)[C@H](Cc1ccc(O)cc1)NC(=O)[C@H](CO)NC(=O)[C@H](CO)NC(=O)[C@H](CC(N)=O)NC(=O)COCCOCCNC(=O)CN1CCN(CC(=O)O)CCN(CC(=O)O)CCN(CC(=O)O)CC1)C(=O)N[C@@H](CC(C)C)C(N)=O [copper-64 labelled]: “maximum pancreas uptake” 15.5 %IA/cc (dynamic PET; tamoxifen-induced PDAC mouse model, pancreas; 27.5 min, CLDN4-expressing tumours).
CN[C@@H]1[C@H](O)[C@H](NC)[C@H]2O[C@]3(O)[C@H](O[C@@H]2[C@H]1O)O[C@H](C)C[C@H]3NC(=O)Cc1ccc(Cl)cn1 gave a fraction unbound of 0.858 (mouse plasma).
O=C1NC(=O)c2c1c1cc(F)c[n+]3c1c1c2c2cc(O)ccc2[n]1[Ru-4]312([N]=C=S)[S+]3CC[S+]1CC[S+]2CC3 (stereo not drawn) gave a remaining activity of 7% (Lyn (Mus musculus, UniProt P25911); enzyme activity; 100 nM, mouse enzyme, added: 10 µM ATP; reference: untreated).
For COc1ccc(-n2cc(C(=O)N3C[C@]4(OC(=O)c5ccccc5NC(C)=O)CC[C@H](OC)[C@@]56[C@@H]4C[C@@H]([C@@H]35)[C@@]3(O)C[C@H](OC)[C@H]4C[C@@H]6[C@]3(O)[C@H]4OC)nn2)cc1, the AUC(0-inf) was 59.1 ng·h/mL (rat Sprague-Dawley, plasma; intravenous, 2 mg/kg).
CNC(=O)CC1CN(C(=O)c2ccc(C(F)(F)F)cn2)CCN1C(=O)c1cccnn1 (stereo not drawn) has a viability of 0.955 and 1.03 and 1.05 (Huh-7-ACE2; CellTiter-Glo; 0.00305 µM, 48 h, unit not given; reference: DMSO).
For Cc1cc(-c2ccc3ccccc3c2)nnc1NCCN1CCN(C)CC1, the half-life was greater than 30 min (Cytochrome P450 2A6 (CYP2A6, Homo sapiens, UniProt P11509); substrate; recombinant enzyme; 1000 nM).
CC(=O)NCCCC[C@@H]1NC(=O)[C@H](Cc2c[nH]c3c(C)cccc23)NC(=O)[C@H]([C@@H](C)O)NC(=O)[C@H](CC(N)=O)NC(=O)[C@@H](NC(C)=O)C(C)(C)SSC(C)(C)[C@@H](C(=O)N[C@@H](Cc2ccc(OCCN)cc2)C(=O)N[C@@H](Cc2ccc3ccccc3c2)C(=O)NC2(C(=O)N[C@@H](CCC(=O)O)C(=O)N[C@@H](CC(N)=O)C(=O)N[C@@H](Cc3cccnc3)C(=O)N(C)CC(N)=O)CCOCC2)NC1=O has an efflux ratio of 16.5 (ABCB1 (Homo sapiens, UniProt P08183); transport, inhibitor; LLC-PK1 expressing MDR1; 600 µM, 90 min, added: [3H]digoxin).
CNC(=O)C[C@H](Cc1ccc(F)cc1)NC(=O)[C@@H](Cc1ccc(Cl)cc1Cl)NC(=O)[C@H](N)Cc1ccccc1[N+](=O)[O-] has a viability of 0.912 and 0.993 and 0.947 (Huh-7-ACE2; CellTiter-Glo; 6.25 µM, 48 h, unit not given; reference: DMSO).
With CC(C)[C@H]1NC(=O)C[C@H]2/C=C/CCSSC[C@@H](NC1=O)C(=O)N[C@H](Cc1cccc3ccccc13)C(=O)NCC(=O)O2 the inhibition was 8.4% (PDGFRA (Homo sapiens, UniProt P16234, V561D); enzyme activity, inhibitor; 10 µM).
The inhibition of CN(C)[C@H]1C[C@@]23CC[C@@]4(O2)C(=CC[C@]2(C)[C@@H](c5ccc6ccncc6c5)CC[C@H]24)C=C3[C@@H](O)[C@@H]1O is reported as 0.3% (ARAF (Homo sapiens, UniProt P10398); ATP probe labelling, inhibitor, KiNativ profiling; 0.1 µM).
C[C@@H](c1ccc2nccn2c1)n1nnc2nc(O)c(-c3cnn(C)c3)nc21 gave an IC50 of greater than 50000 nM (CYP2C19 (Homo sapiens, UniProt P33261); enzyme activity, inhibitor; human, liver microsomes).
For CNC(=O)C[C@H](Cc1ccc(F)cc1)NC(=O)[C@@H](Cc1ccc(Cl)cc1Cl)NC(=O)[C@H](N)Cc1ccccc1C#N, the viability was 0.966 and 1.02 and 0.925 (Huh-7-ACE2; CellTiter-Glo; 1.562 µM, 48 h, unit not given; reference: DMSO).
Cc1nc2cccc(OCC(C)(C)C(=O)NC(C)C)c2c(N)c1C(=O)[O-].[Na+] gave a revertant colonies of 39 ± 8 colonies/plate (Escherichia coli; Ames plate incorporation; WP2 uvrA; 0.80 mg/plate, added: with rat liver S9).
Cc1sc2c(c1C)C(c1ccc(Cl)cc1)=N[C@@H](CC(=O)OC(C)(C)C)c1nnc(C)n1-2 has a clearance of 39.2 mL/min/kg (CD1 mouse, male, plasma; intravenous, 5 mg/kg).
With O=C1NC2(CC2)COc2ncc(F)cc2[C@H]2COCCN2c2ccn3ncc1c3n2 the organ weight was 3.28 ± 0.332 g (Sprague-Dawley rat, male, testes; oral, 2.5 mg/kg/day, 4 weeks).

For quick reference, copied from above:
CC[C@H](C)[C@H](NC(=O)[C@H](CO)NC(=O)[C@H](Cc1ccc(O)cc1)NC(=O)[C@H](Cc1ccc(O)cc1)NC(=O)[C@H](CC(N)=O)NC(=O)CNC(=O)[C@H](CO)NC(=O)[C@H](Cc1ccc(O)cc1)NC(=O)[C@H](CO)NC(=O)[C@H](CO)NC(=O)[C@H](CC(N)=O)NC(=O)COCCOCCNC(=O)CN1CCN(CC(=O)O)CCN(CC(=O)O)CCN(CC(=O)O)CC1)C(=O)N[C@@H](CC(C)C)C(N)=O [copper-64 labelled]: “maximum pancreas uptake” 15.5 %IA/cc (dynamic PET; tamoxifen-induced PDAC mouse model, pancreas; 27.5 min, CLDN4-expressing tumours).
CN[C@@H]1[C@H](O)[C@H](NC)[C@H]2O[C@]3(O)[C@H](O[C@@H]2[C@H]1O)O[C@H](C)C[C@H]3NC(=O)Cc1ccc(Cl)cn1 gave a fraction unbound of 0.858 (mouse plasma).
O=C1NC(=O)c2c1c1cc(F)c[n+]3c1c1c2c2cc(O)ccc2[n]1[Ru-4]312([N]=C=S)[S+]3CC[S+]1CC[S+]2CC3 (stereo not drawn) gave a remaining activity of 7% (Lyn (Mus musculus, UniProt P25911); enzyme activity; 100 nM, mouse enzyme, added: 10 µM ATP; reference: untreated).
For COc1ccc(-n2cc(C(=O)N3C[C@]4(OC(=O)c5ccccc5NC(C)=O)CC[C@H](OC)[C@@]56[C@@H]4C[C@@H]([C@@H]35)[C@@]3(O)C[C@H](OC)[C@H]4C[C@@H]6[C@]3(O)[C@H]4OC)nn2)cc1, the AUC(0-inf) was 59.1 ng·h/mL (rat Sprague-Dawley, plasma; intravenous, 2 mg/kg).
